Assay results gathered from unrelated publications.
Numbered parts are unrelated; each lists some results of a single study.

Set 1
Target: Prothrombin, mature alpha-thrombin (F2, Homo sapiens, UniProt P00734)
Method: aptamer microarray, sandwich
Form: DNA with 2'F-ANA
Matrix: in vitro
Concentration: 200 nM
Notes: whole 15-mer aptamer, many near background
Added: Cy3 exosite-II aptamer, 400 nM
Reading: higher = stronger binding
Sequence: GGTTGGTGTGGTTGG
`2'F-ANA at 2 4 6 10 11 13 15`: “mean fluorescence intensity” 66 a.u.
Under “mean fluorescence intensity”, `2'F-ANA at 4 9 13 14 15` is recorded as 72.6 a.u.
Under “mean fluorescence intensity”, `2'F-ANA at 2 3 4 7 8 10 12 14 15` is recorded as 193 a.u.
Under “mean fluorescence intensity”, `2'F-ANA at 1 3 6 10 13 15` is recorded as 74.3 a.u.
Under “mean fluorescence intensity”, `2'F-ANA at 2 3 5 7 8 9 11 12` is recorded as 199 a.u.
`2'F-ANA at 2 3 4 6 8 9 11 12 13 14` — result for “mean fluorescence intensity”: 231 a.u.
Under “mean fluorescence intensity”, `2'F-ANA at 2 3 6 8 11 12` is recorded as 894 a.u.

Set 2
Target: RING finger protein unkempt homolog, zinc fingers 1-6, GST-SBP tag (UNK, Homo sapiens, UniProt Q9C0B0, residues 30-357)
Sequence of UniProt Q9C0B0 (30-357, looked up): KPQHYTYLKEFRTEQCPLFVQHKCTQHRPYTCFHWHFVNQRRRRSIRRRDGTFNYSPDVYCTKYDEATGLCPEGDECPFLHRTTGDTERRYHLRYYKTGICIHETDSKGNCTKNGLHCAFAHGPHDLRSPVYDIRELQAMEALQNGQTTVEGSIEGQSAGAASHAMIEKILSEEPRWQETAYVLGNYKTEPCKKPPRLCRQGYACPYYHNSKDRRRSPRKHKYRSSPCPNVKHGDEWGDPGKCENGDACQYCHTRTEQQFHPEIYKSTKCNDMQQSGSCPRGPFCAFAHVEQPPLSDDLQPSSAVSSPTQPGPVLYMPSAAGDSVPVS
Method: RNA Bind-n-Seq
Form: RNA
Matrix: in vitro
Concentration: not given
Notes: RNA with constant flanks, human-mouse chimeric sites, ends assumed
Relative to: input RNA pool
Reading: higher = stronger binding
For `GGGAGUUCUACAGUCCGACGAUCAGAGAUAAGACAUCCAGAAAUAUGAGAGGGUCACGGAUGAAUGGGUUGCCUAGCCCCACUCACAGCGCCCACUGUAGCUUCUACCGAACCAGAACCUUGCAGGCACUGAGUAAUGAGAAGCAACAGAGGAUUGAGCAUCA`, the bound/input enrichment was 0.161 ratio.
With `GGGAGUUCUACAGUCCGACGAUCACAGUUAUAUUGUUGAGUUUCAUUUUCAUAUAUUCUUGUAGUGUCUGCUUGCCUGUGACUUCUGGUAAAAUAAAAUAAGCCUUUGAAAAUAUUUUAGAUUUAACAUUUUCUAAAAAUAAACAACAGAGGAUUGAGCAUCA` the bound/input enrichment was 1.41 ratio.
The bound/input enrichment of `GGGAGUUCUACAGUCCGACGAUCUUGCUACUGACUCCCUGGGUCAAGUUCCUGUGGGAAUCUUACAGGCAGUGUUUGGACCUUCUUCGAAACAAUUCUAGAGUAGAGCGCCUUUACCAUGAUAUUGCCCAACAAGCUUUCAAACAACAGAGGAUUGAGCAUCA` is reported as 0.131 ratio.
`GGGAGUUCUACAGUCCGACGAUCCUGAGGAUACCACUGAAGAGACCUUAAAAGAAUCAUUUUGACGGCUCGUUCGUGCAAAGGAUAGUUAUGAUCGGGAAACUGGUUCUUCCAAAGGGUUUGGUUUUGUAGACUUUAAUAGUGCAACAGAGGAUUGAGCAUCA` has a bound/input enrichment of 0.77 ratio.
With `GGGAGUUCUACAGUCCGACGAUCAAUGUGGAGUUGAGUUCCUUGGCCCGGCUUCCCAGCUUGAAUAAACUUCGAAAAUUGGAACUUAGUGACAAUAUAAUUUCUGGAGGCUUGGAAGUCCUGGCAGAGAAAUGUCCAAAUCUUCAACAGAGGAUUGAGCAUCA` the bound/input enrichment was 0.764 ratio.
`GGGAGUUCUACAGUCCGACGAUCGCAAAGGAUGAUGAGGCGGCAGCUGUUGCCCUUUCCUCUCUCGUUCAUGCUUUGGAUGACUUAGACAUGGUCGCCAUCGUCCGAUAUGCUUAUGACAAAAGAGCUAAUCCUCAAGUUGGUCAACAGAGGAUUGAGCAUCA` gave a bound/input enrichment of 0.191 ratio.

Set 3
Target: Centromere-binding protein 1, full length, His-tagged (CBF1, Saccharomyces cerevisiae, UniProt P17106, residues 1-351)
Sequence of UniProt P17106 (whole entry, looked up): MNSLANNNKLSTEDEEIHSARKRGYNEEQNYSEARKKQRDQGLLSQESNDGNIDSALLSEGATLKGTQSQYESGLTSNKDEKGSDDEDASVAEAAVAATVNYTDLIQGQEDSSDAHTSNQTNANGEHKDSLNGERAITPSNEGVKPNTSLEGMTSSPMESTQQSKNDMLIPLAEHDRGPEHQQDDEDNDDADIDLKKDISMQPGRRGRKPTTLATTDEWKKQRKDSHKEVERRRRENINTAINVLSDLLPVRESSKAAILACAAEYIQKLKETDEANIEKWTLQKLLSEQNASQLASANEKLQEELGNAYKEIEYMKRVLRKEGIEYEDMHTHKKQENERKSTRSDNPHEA
Method: competition protein-binding microarray
Form: double-stranded DNA, one strand shown
Matrix: in vitro
Concentration: 2 µM
Notes: whole 60-bp probe, lowest competitor level
Added: Pho4 competitor, 0.05 µM
Reading: higher = stronger binding
`TGCGCAACAACTTTTCACGTGGGATTATGTCTAGAAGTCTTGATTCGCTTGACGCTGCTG` gave a fluorescence intensity of 641 a.u.
`GGAGACGTCGCCTTTCTCGTGAAGGCTGGCGGGGTAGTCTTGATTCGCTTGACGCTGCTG` has a fluorescence intensity of 70.7 a.u.
For `CTTCTGTAAATTTGACTGGTGGGTGGACGCGCCCCGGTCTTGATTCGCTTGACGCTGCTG`, the fluorescence intensity was 69.5 a.u.
The fluorescence intensity of `AAAGCGGTAATTTGGGCAGTGGGTGCAGATATCTATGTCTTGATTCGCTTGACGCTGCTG` is reported as 78.4 a.u.
For `GAGTTATAATTTCACCACGTGAGCCCGATGAAATAGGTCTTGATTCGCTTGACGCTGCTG`, the fluorescence intensity was 2130 a.u.

Single results of other studies
For `PhoQ, residues 284 288 289 292 302 303 SSLVEF`, the fold induction was 1.69 (PhoP, residues 12 14 15 18 19 TPWLV (Escherichia coli, UniProt P23836); Sort-seq, refers to: YFP reporter; E. coli; PhoQ-PhoP variant library, added: 10 µM Mg2+; relative to: high Mg2+ state, higher = stronger signaling).

Some of these lines once more (set 3):
`TGCGCAACAACTTTTCACGTGGGATTATGTCTAGAAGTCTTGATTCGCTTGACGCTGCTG` gave a fluorescence intensity of 641 a.u.
